Measured values pooled from the literature.
Parts stem from different laboratories: compare values within a part only. “And” joins repeats or separate records; there may be more than shown.
Chain of UniProt P11802 (whole entry, looked up): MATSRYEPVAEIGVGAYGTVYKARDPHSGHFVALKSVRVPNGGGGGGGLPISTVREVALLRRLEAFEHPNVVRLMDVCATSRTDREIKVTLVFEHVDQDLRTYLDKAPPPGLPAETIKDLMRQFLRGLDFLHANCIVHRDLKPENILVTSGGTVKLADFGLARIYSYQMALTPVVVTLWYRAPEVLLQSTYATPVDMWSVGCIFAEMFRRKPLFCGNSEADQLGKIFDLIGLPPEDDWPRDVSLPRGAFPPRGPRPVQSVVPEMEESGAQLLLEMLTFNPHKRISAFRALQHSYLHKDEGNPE
Chain of UniProt P37173 (whole entry, looked up): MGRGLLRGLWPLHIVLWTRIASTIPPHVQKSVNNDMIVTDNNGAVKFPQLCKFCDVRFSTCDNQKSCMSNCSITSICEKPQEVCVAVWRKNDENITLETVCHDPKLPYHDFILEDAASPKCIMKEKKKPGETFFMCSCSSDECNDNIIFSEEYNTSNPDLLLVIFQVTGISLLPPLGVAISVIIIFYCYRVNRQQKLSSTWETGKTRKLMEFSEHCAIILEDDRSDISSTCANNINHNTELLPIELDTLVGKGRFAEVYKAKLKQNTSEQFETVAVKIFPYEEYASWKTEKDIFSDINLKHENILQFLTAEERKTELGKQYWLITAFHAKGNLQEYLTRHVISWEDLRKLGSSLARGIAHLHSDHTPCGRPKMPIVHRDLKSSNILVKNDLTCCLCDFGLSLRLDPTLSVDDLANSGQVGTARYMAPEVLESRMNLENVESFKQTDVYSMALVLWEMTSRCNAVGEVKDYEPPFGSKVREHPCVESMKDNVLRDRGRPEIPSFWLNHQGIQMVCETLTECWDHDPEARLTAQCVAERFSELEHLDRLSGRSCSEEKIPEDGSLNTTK
Chain of UniProt Q96RR4 (whole entry, looked up): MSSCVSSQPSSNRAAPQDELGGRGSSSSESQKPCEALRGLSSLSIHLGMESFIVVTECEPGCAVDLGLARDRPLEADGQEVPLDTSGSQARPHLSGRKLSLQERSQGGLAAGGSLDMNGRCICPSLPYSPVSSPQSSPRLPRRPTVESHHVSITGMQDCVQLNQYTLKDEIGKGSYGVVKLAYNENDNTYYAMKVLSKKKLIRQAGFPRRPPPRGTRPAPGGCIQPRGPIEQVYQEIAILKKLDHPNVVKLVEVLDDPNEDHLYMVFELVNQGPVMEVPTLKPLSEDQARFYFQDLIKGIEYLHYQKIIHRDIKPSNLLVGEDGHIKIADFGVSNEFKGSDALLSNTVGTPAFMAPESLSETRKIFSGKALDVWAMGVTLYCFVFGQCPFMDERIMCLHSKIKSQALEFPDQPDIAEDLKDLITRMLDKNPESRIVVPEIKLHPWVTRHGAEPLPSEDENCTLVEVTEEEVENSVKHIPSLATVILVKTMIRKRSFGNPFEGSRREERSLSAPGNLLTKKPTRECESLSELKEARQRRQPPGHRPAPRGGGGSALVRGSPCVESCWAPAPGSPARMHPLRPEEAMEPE
Chain of UniProt Q15831 (whole entry, looked up): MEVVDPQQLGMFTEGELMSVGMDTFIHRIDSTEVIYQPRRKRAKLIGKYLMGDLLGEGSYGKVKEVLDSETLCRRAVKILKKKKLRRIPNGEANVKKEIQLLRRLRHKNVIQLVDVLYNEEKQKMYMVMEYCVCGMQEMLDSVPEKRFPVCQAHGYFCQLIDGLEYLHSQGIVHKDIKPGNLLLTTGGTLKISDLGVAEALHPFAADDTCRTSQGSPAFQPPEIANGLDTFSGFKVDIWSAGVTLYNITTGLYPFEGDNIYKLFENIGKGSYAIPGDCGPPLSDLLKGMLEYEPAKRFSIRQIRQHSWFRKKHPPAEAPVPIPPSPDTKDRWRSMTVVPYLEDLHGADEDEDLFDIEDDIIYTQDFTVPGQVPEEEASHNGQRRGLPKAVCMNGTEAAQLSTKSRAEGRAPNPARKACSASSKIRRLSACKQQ
Chain of UniProt O95747 (whole entry, looked up): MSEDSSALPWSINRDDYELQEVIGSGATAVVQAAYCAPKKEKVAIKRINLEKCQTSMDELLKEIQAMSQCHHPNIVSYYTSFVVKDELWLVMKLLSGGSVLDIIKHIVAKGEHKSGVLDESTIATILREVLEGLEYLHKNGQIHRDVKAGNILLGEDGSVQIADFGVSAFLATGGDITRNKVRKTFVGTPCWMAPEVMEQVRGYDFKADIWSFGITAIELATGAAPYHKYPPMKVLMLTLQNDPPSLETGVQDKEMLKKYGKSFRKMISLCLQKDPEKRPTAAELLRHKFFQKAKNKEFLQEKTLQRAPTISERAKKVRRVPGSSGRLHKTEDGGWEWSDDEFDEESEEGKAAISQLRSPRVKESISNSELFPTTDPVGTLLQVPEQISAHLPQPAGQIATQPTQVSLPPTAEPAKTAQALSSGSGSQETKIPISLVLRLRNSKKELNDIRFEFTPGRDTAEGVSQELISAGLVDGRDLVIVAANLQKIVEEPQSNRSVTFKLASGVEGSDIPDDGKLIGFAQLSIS
Chain of UniProt Q99759 (whole entry, looked up): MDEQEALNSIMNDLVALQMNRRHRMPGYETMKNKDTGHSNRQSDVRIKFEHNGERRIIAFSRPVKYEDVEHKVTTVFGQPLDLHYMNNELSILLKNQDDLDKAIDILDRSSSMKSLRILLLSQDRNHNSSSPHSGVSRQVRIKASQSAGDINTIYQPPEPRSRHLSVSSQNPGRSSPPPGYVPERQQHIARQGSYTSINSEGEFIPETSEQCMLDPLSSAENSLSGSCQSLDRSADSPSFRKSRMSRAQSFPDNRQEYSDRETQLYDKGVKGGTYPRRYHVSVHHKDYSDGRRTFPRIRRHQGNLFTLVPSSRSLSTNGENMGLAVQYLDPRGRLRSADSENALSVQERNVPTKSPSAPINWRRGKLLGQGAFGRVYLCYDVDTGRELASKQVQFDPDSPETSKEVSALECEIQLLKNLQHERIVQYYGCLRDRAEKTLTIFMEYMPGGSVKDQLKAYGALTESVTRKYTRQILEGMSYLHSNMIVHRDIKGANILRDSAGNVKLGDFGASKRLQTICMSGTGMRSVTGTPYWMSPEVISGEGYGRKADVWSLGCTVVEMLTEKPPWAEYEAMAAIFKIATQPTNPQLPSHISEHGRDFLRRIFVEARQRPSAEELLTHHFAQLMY
Chain of UniProt P51955 (whole entry, looked up): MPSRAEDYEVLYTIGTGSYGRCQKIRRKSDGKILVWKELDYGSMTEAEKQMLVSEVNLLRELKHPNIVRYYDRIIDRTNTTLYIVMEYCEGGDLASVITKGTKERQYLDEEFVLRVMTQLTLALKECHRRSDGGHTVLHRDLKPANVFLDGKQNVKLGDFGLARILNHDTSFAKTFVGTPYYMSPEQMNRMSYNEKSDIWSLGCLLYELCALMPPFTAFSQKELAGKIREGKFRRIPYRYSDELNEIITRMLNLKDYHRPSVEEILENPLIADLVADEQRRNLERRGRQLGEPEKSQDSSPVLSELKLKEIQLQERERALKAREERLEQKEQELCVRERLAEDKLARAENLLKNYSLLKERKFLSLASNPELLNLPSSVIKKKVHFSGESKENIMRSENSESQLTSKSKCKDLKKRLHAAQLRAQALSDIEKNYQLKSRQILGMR
Chain of UniProt Q13976 (whole entry, looked up): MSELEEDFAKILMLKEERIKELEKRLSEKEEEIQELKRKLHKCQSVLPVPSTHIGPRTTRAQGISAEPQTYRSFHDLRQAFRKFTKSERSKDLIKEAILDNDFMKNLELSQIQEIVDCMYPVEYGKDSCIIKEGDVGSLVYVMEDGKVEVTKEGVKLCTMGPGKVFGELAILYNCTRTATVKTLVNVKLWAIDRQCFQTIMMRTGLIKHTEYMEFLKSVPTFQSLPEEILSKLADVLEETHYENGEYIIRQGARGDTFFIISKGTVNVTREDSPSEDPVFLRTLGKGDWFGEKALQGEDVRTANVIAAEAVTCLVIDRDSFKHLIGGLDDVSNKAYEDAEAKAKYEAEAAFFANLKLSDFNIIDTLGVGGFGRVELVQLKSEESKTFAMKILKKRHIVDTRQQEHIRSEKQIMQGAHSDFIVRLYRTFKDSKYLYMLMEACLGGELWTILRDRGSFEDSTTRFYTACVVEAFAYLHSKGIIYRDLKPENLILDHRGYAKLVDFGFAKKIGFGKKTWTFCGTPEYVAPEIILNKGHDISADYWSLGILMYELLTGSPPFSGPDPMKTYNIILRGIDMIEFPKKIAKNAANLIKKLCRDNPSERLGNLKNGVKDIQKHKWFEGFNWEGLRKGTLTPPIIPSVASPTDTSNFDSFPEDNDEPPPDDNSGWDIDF

Sample 1 — read-out: cell-free assay; method: competition with immobilised ligand; tested at: 1 µM; measurement: remaining binding
SMILES: CCCCN(CCCC)C(=O)CN1C[C@@H](c2cc(OC)c3c(c2)OCO3)[C@H](C(=O)O)[C@H]1CC(C)(C)CCC
Calcium/calmodulin-dependent protein kinase type 1B (PNCK, Homo sapiens, UniProt Q6P2M8): 100%
Cyclin-dependent kinase 4, with cyclin D1 (CDK4, Homo sapiens, UniProt P11802): 100%
Ephrin type-B receptor 6 (EPHB6, Homo sapiens, UniProt O15197): 87.7%
Cytoplasmic tyrosine-protein kinase BMX (BMX, Homo sapiens, UniProt P51813): 84.6%
Tyrosine-protein kinase JAK2, JH1 (JAK2, Homo sapiens, UniProt O60674): 91%
Mitogen-activated protein kinase 6 (MAPK6, Homo sapiens, UniProt Q16659): 96.5%
Dual specificity protein kinase CLK1 (CLK1, Homo sapiens, UniProt P49759): 100%
Ephrin type-A receptor 2 (EPHA2, Homo sapiens, UniProt P29317): 97.8%
Leucine-rich repeat serine/threonine-protein kinase 2 (LRRK2, Homo sapiens, UniProt Q5S007): 65.9%
High affinity nerve growth factor receptor (NTRK1, Homo sapiens, UniProt P04629): 86.7%
Serine/threonine-protein kinase 4 (STK4, Homo sapiens, UniProt Q13043): 94.4%
Tyrosine-protein kinase receptor UFO (AXL, Homo sapiens, UniProt P30530): 87.2%
Leukocyte tyrosine kinase receptor (LTK, Homo sapiens, UniProt P29376): 94.1%
Calcium/calmodulin-dependent protein kinase type 1 (CAMK1, Homo sapiens, UniProt Q14012): 100%
TGF-beta receptor type-2 (TGFBR2, Homo sapiens, UniProt P37173): 98.6%
Dual specificity tyrosine-phosphorylation-regulated kinase 1A (DYRK1A, Homo sapiens, UniProt Q13627): 96.3%

Sample 2 — Compound: CC(C)N(CCC(=O)c1ccc2ccccc2c1)Cc1ccccc1; read-out: enzyme activity; action: inhibitor; tested at: 0.5 µM; reference: control; measurement: remaining activity
TGF-beta receptor type-2 (TGFBR2, Homo sapiens, UniProt P37173): 98.8%
Tyrosine-protein kinase Lyn, isoform B (LYN, Homo sapiens, UniProt P07948): 89.3%
Protein kinase C alpha type (PRKCA, Homo sapiens, UniProt P17252): 107%
Inhibitor of nuclear factor kappa-B kinase subunit beta (IKBKB, Homo sapiens, UniProt O14920): 101%
Cyclin-dependent kinase 5, with p25 (CDK5, Homo sapiens, UniProt Q00535): 96.5%
Serine/threonine-protein kinase Chk2 (CHEK2, Homo sapiens, UniProt O96017): 87.5%
Protein kinase C beta type, isoform beta-I (PRKCB, Homo sapiens, UniProt P05771): 92.6%
cGMP-dependent protein kinase 1, isoform beta (PRKG1, Homo sapiens, UniProt Q13976): 102%
Cyclin-dependent kinase 4, with cyclin D1 (CDK4, Homo sapiens, UniProt P11802): 103%
Serine/threonine-protein kinase OSR1 (OXSR1, Homo sapiens, UniProt O95747): 106%
Serine/threonine-protein kinase Nek2 (NEK2, Homo sapiens, UniProt P51955): 86.9%
Inhibitor of nuclear factor kappa-B kinase subunit epsilon (IKBKE, Homo sapiens, UniProt Q14164): 93%
G protein-coupled receptor kinase 3 (GRK3, Homo sapiens, UniProt P35626): 88.9%
Mitogen-activated protein kinase 9 (MAPK9, Homo sapiens, UniProt P45984): 100%
Serine/threonine-protein kinase STK11 (STK11, Homo sapiens, UniProt Q15831): 94.2%
Death-associated protein kinase 1 (DAPK1, Homo sapiens, UniProt P53355): 97.9%
Mitogen-activated protein kinase kinase kinase 3 (MAP3K3, Homo sapiens, UniProt Q99759): 102%
Calcium/calmodulin-dependent protein kinase kinase 2 (CAMKK2, Homo sapiens, UniProt Q96RR4): 85.2%
Serine/threonine-protein kinase 10 (STK10, Homo sapiens, UniProt O94804): 93.6%
Calcium/calmodulin-dependent protein kinase type II subunit delta (CAMK2D, Homo sapiens, UniProt Q13557): 90%
STE20/SPS1-related proline-alanine-rich protein kinase (STK39, Homo sapiens, UniProt Q9UEW8): 88.3%
Death-associated protein kinase 2 (DAPK2, Homo sapiens, UniProt Q9UIK4): 99.6%

Sample 3 — cell line: HuT78; tested at: 2 µM; time: 48 h; reference: untreated; measurement: viability
COc1cc2ncnc(Nc3ccc(O)c(Br)c3)c2cc1OC: 114%
C=CC(=O)N1CCC[C@@H](n2nc(-c3ccc(Oc4ccccc4)cc3)c3c(N)ncnc32)C1: 118%
Cn1cc(/C=C2\C(=O)Nc3cccnc32)c2ccccc21: 117%
N#C/C(=C\c1ccc(O)c(O)c1)C(=O)NCc1ccccc1: 88.7%
COc1cc2ncnc(Nc3cccc(Cl)c3)c2cc1OC: 128%
CN1CCC(CNc2ccc3ncc(-c4cccc(OC(F)(F)F)c4)n3n2)CC1: 99.7%
CS(=O)(=O)c1cccc(CNc2nc(Nc3ccc4c(c3)CCC(=O)N4)ncc2C(F)(F)F)c1: 110%
COc1cc2c(Oc3ccc(NC(=O)C4(C(=O)Nc5ccc(F)cc5)CC4)cc3F)ccnc2cc1OCCCN1CCOCC1: 91%
C[C@@H]1CCN(C(=O)CC#N)C[C@@H]1N(C)c1ncnc2[nH]ccc12: 102%
COc1cc2nccc(Oc3ccc(NC(=O)Nc4ccc(F)cc4F)c(F)c3)c2cc1OC: 141%
CO[C@H]1C[C@@H]2CC[C@@H](C)[C@@](O)(O2)C(=O)C(=O)N2CCCC[C@H]2C(=O)O[C@H]([C@H](C)C[C@@H]2CC[C@@H](OP(C)(C)=O)[C@H](OC)C2)CC(=O)[C@H](C)/C=C(\C)[C@@H](O)[C@@H](OC)C(=O)[C@H](C)C[C@H](C)/C=C/C=C/C=C/1C: 98%
CN1CCCN(C(=O)c2cccc(-c3ccc(/C=C4/C(=O)Nc5ccc(Cl)cc54)o3)c2)CC1: 9.92%
N#Cc1c(NC(=O)c2cccc3ccccc23)sc2c1CCCC2: 94%
N#C/C(=C(/N)Sc1ccc(N)cc1)c1ccccc1C(F)(F)F: 130%

Sample 4 — organism: Leishmania donovani; strain: DD8; sample: promastigotes; measurement: promastigote number
SMILES: c1ccc(Oc2ccc(Nc3c4c(nc5ccccc35)CCC4)cc2)cc1
0.16 µM, 48 h: 4.37e+06
0.03 µM, 48 h: 4.35e+06 and 4.37e+06
33.33 µM, 48 h: 1590
0.66 µM, 48 h: 2.13e+06
1.66 µM, 72 h: 135000
66.66 µM, 72 h: 1350 and 1590
0.16 µM, 72 h: 9.76e+06
0.03 µM, 72 h: 9.76e+06 and 9.85e+06
0.33 µM, 48 h: 4.33e+06
66.66 µM, 48 h: 1680
